Measurements collected from several papers.
± gives the spread as reported.
Aryl hydrocarbon receptor: Aryl hydrocarbon receptor (Danio rerio, UniProt Q9YGV3)

| Compound | target | test | test system | setting | scale | measurement | result |
| --- | --- | --- | --- | --- | --- | --- | --- |
| C[C@H]1CCN(c2nccc(-c3cnn4ncccc34)n2)C1 | ABL1 (Homo sapiens, UniProt P00519, H396P) |  |  | 1 µM | baseline: control | remaining binding | 66% |
| CCCCCCCCCCCCC/C=C/[C@@H](O)[C@H](CO)NC(=O)CCCCCCCCCCCCCCCCCCCCCCC | Protein SET (SET, Homo sapiens, UniProt Q01105, Y135C) | lipid binding, GFP pull-down LC-MS/MS | A549 overexpressing GFP-tagged protein | unit not given | baseline: vector-transfected cells | bound endogenous lipid | 5.5 |
| CC[C@H](C)[C@@H]1NC(=O)[C@H](C)NC(=O)[C@H]([C@@H](C)CC)NC(=O)[C@H](CCC(N)=O)NC(=O)[C@H](C)NC(=O)[C@H](CCCNC(=N)N)NC(=O)[C@H](C(C)C)NC(=O)[C@H](CC(C)C)NC(=O)[C@H](CCC(=O)O)NC(=O)[C@H](CCCNC(=N)N)NC(=O)CNC(=O)[C@@H](NC(=O)[C@H](CC(C)C)NC(=O)[C@H](CCCCN)NC(=O)[C@@H](NC(=O)[C@@H](NC(=O)[C@H](CCC(=O)O)NC(=O)[C@H](CCC(=O)O)NC(=O)[C@H](CCSC)NC(=O)[C@H](Cc2c[nH]c3ccccc23)NC(=O)[C@H](CO)NC(=O)[C@@H](N)CC(=O)O)C(C)C)[C@@H](C)CC)CSSC[C@@H]2NC(=O)[C@@H](NC(=O)[C@H](CCCCN)NC(=O)[C@H](CC(N)=O)NC(=O)[C@H](C)NC(=O)[C@H](CC(C)C)NC(=O)[C@H](C)NC(=O)[C@H](CO)NC(=O)[C@H](Cc3ccc(O)cc3)NC(=O)[C@H](CC(C)C)NC(=O)[C@H](CCC(N)=O)NC(=O)c3ccc(-c4c5ccc(=[N+](C)C)cc-5oc5cc(N(C)C)ccc45)c(C(=O)[O-])c3)CSSC[C@H](NC(=O)CNC(=O)[C@H](C(C)C)NC(=O)[C@H](Cc3c[nH]cn3)NC2=O)C(=O)N[C@@H]([C@@H](C)O)C(=O)N[C@@H](CCCCN)C(=O)N[C@@H](CCCNC(=N)N)C(=O)N[C@@H](CO)C(=O)N[C@@H](CC(C)C)C(=O)N[C@@H](C)C(=O)N[C@@H](CCCNC(=N)N)C(=O)N[C@@H](Cc2ccccc2)C(=O)N[C@H](C(=O)O)CSSC[C@@H](C(=O)NCC(=O)N[C@@H](CCSC)C(=O)N[C@@H](CO)C(=O)N[C@H](C(=O)N[C@@H](Cc2c[nH]c3ccccc23)C(=O)N[C@@H](CO)C(=O)O)[C@@H](C)O)NC1=O | Relaxin receptor 1 (RXFP1, Homo sapiens, UniProt Q9HBX9, F76A/Y80A) | NanoBRET dissociation |  | infinite dilution, with: 10 nM relaxin |  | koff slow phase | 0.000972 s⁻¹ |
| Cc1nc(CSc2nc(SCc3ccc(C(C)C)cc3)nc(=O)[nH]2)cs1 | TOP2A (Homo sapiens, UniProt P11388) | DNA relaxation |  | 31.25 µM, replicate 2 |  | relaxed DNA | 99.9% |
| CC[C@@H]1[C@H](F)C(=O)N[C@@H]1COc1nccc2cc(C(N)=O)c(OC)cc12 | STK16 (Homo sapiens, UniProt O75716) | ATP-site probe binding, ActivX profiling | THP-1 cell lysate | 0.01 mM, Lys1 site |  | inhibition | 10.7% |
| CN1C(=O)/C(=C2\Nc3ccccc3\C2=N/O)c2ccc(Br)cc21 | Aryl hydrocarbon receptor | reporter gene, agonist, luciferase reporter | ZF-4 | 0.0064 µM | baseline: vehicle control | fold change | 2.01 |
| Nc1nnc(-c2ccccc2O)cc1N1CCN(Cc2ccc(OCCOCCNc3cccc4c3C(=O)N(C3CCC(=O)NC3=O)C4=O)c(F)c2)CC1 (stereo not drawn) | SMARCA2 (Homo sapiens, UniProt P51531) | immunoblot | mouse, NCI-H322 xenograft, tumour lysate | dose not given, end of study | baseline: vehicle | decrease in protein level | 76% |
| CCCCC[C@H](O)/C=C/[C@H]1[C@H](O)CC(=O)[C@@H]1C/C=C\CCCC(=O)O | PTGER1 (Homo sapiens, UniProt P34995, L215A) | IP1 accumulation, agonist | AD293 | 1 h, EP1 L215A mutant |  | Emax | 62.6 ± 12% |
| Nc1cccc2c1CN(C1CCC(=O)NC1=O)C2=O (stereo not drawn) | Sal-like protein 4 (SALL4, Homo sapiens, UniProt Q9UJQ4) | degrader | C33A |  |  | Dmax | 43 ± 2% |
| CC1(C)CC2(C)OC(=O)NC2(C)c2ccccc21 (stereo not drawn) | Huntingtin (HTT, Homo sapiens, UniProt P42858) | binding, affinity selection mass spectrometry |  |  | baseline: other proteins in batch | log fold enrichment | 0.243 |
| Cc1cccc2c1ccc1cc(C(C)C)ccc12 | Aryl hydrocarbon receptor | reporter gene, agonist, luciferase reporter | ZF-4 | 3333.33 µM | baseline: vehicle control | fold change | 0.916 |
| CC[C@H](C)[C@H](NC(=O)[C@H](CCCNC(=N)N)NC(=O)[C@H](Cc1c[nH]cn1)NC(=O)[C@H](CCCNC(=N)N)NC(=O)[C@H](CC(=O)O)NC(=O)[C@H](CC(=O)O)NC(=O)[C@@H](NC(=O)[C@H](CC(=O)O)NC(=O)[C@@H]1CCCN1C(=O)[C@@H](N)CC(C)C)[C@@H](C)O)C(=O)N[C@@H](CCC(=O)O)C(=O)N[C@@H](CCC(=O)O)C(=O)N[C@@H](CCCCN)C(=O)N[C@@H](CCCNC(=N)N)C(=O)N[C@@H](CCCCN)C(=O)N[C@@H](CCCNC(=N)N)C(=O)N[C@H](C(=O)N[C@@H](Cc1ccc(O)cc1)C(=O)N[C@@H](CCC(=O)O)C(=O)N[C@H](C(=O)N[C@@H](Cc1ccccc1)C(=O)N[C@@H](CCCCN)C(=O)N[C@@H](CO)C(=O)N[C@@H](C)C(=O)N[C@@H](CCSC)C(=O)N[C@@H](CCCCN)C(=O)N[C@@H](CCCCN)C(=O)N[C@@H](CO)C(=O)N1CCC[C@H]1C(=O)N[C@@H](Cc1ccccc1)C(=O)N[C@@H](CC(N)=O)C(=O)NCC(=O)N1CCC[C@H]1C(=O)O)[C@@H](C)O)[C@@H](C)O | NF-kappa-B inhibitor alpha (Homo sapiens, UniProt P25963) | binding, ITC |  | pH 7.5, 293 K, 50 mM NaCl |  | ΔG | -8.4 ± 0.02 kcal/mol |
| Cc1ccc(NC(=O)/C=C/c2cccs2)cc1 | Nicotinic acetylcholine receptor alpha9/alpha10 (Rattus norvegicus, UniProt P43144+Q9JLB5) | positive allosteric modulator | rat α9α10 expressing cells | with: ACh 100 µM |  | potentiation EC50 | inactive |
| NCCCCC(=O)O | SLC6A6 (Homo sapiens, UniProt P31641, G62A) | binding, microscale thermophoresis |  | 122 nM, room temperature, with: 50 nM labelled protein | higher = more binding | normalised MST signal | 0.0153 |
| O=C(Nc1cccc2[nH]ccc12)c1ccc(C(F)(F)F)cc1 | Alpha-synuclein (SNCA, Homo sapiens, UniProt P37840) | ThT kinetics |  | concentration not given, with: SNCA 2 µM |  | fibril formation | inhibited |

Excerpt of the above:
| Compound | target | test | test system | setting | scale | measurement | result |
| --- | --- | --- | --- | --- | --- | --- | --- |
| CC[C@H](C)[C@@H]1NC(=O)[C@H](C)NC(=O)[C@H]([C@@H](C)CC)NC(=O)[C@H](CCC(N)=O)NC(=O)[C@H](C)NC(=O)[C@H](CCCNC(=N)N)NC(=O)[C@H](C(C)C)NC(=O)[C@H](CC(C)C)NC(=O)[C@H](CCC(=O)O)NC(=O)[C@H](CCCNC(=N)N)NC(=O)CNC(=O)[C@@H](NC(=O)[C@H](CC(C)C)NC(=O)[C@H](CCCCN)NC(=O)[C@@H](NC(=O)[C@@H](NC(=O)[C@H](CCC(=O)O)NC(=O)[C@H](CCC(=O)O)NC(=O)[C@H](CCSC)NC(=O)[C@H](Cc2c[nH]c3ccccc23)NC(=O)[C@H](CO)NC(=O)[C@@H](N)CC(=O)O)C(C)C)[C@@H](C)CC)CSSC[C@@H]2NC(=O)[C@@H](NC(=O)[C@H](CCCCN)NC(=O)[C@H](CC(N)=O)NC(=O)[C@H](C)NC(=O)[C@H](CC(C)C)NC(=O)[C@H](C)NC(=O)[C@H](CO)NC(=O)[C@H](Cc3ccc(O)cc3)NC(=O)[C@H](CC(C)C)NC(=O)[C@H](CCC(N)=O)NC(=O)c3ccc(-c4c5ccc(=[N+](C)C)cc-5oc5cc(N(C)C)ccc45)c(C(=O)[O-])c3)CSSC[C@H](NC(=O)CNC(=O)[C@H](C(C)C)NC(=O)[C@H](Cc3c[nH]cn3)NC2=O)C(=O)N[C@@H]([C@@H](C)O)C(=O)N[C@@H](CCCCN)C(=O)N[C@@H](CCCNC(=N)N)C(=O)N[C@@H](CO)C(=O)N[C@@H](CC(C)C)C(=O)N[C@@H](C)C(=O)N[C@@H](CCCNC(=N)N)C(=O)N[C@@H](Cc2ccccc2)C(=O)N[C@H](C(=O)O)CSSC[C@@H](C(=O)NCC(=O)N[C@@H](CCSC)C(=O)N[C@@H](CO)C(=O)N[C@H](C(=O)N[C@@H](Cc2c[nH]c3ccccc23)C(=O)N[C@@H](CO)C(=O)O)[C@@H](C)O)NC1=O | Relaxin receptor 1 (RXFP1, Homo sapiens, UniProt Q9HBX9, F76A/Y80A) | NanoBRET dissociation |  | infinite dilution, with: 10 nM relaxin |  | koff slow phase | 0.000972 s⁻¹ |
| Cc1nc(CSc2nc(SCc3ccc(C(C)C)cc3)nc(=O)[nH]2)cs1 | TOP2A (Homo sapiens, UniProt P11388) | DNA relaxation |  | 31.25 µM, replicate 2 |  | relaxed DNA | 99.9% |
